Measured values from different studies.
Each numbered part is a random draw from the data of one study; scales do not carry over between parts.

Series 1
Target: Protein C-ets-1 (ETS1, Homo sapiens, UniProt P14921, residues 1-441, full length assumed)
Technique: protein-binding microarray
Molecule type: double-stranded DNA, one strand shown
Sample: in vitro
Tested at: not given
Setting: k-mer, scored over probes, only values ≥0.25
Direction: higher = stronger binding
Target sequence (chain): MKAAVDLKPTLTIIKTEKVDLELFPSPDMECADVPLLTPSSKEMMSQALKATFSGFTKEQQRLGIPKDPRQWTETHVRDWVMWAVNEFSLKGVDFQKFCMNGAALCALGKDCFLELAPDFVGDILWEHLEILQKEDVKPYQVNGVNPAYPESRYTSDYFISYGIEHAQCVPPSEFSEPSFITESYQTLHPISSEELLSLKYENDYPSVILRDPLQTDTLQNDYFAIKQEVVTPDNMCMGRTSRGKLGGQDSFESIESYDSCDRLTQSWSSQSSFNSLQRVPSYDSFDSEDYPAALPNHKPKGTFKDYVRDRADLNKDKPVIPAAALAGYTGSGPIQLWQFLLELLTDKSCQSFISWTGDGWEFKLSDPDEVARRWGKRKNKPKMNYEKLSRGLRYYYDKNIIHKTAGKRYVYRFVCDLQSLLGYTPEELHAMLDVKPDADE
`CGCCGGAC` gave an E-score of 0.343.
With `GCATATCC` the E-score was 0.421.
The E-score of `CAACTTCC` is reported as 0.474.
`CGTCCGCC` gave an E-score of 0.449.
`AAACAGGA` gave an E-score of 0.433.
With `AGGGAAGC` the E-score was 0.33.
The E-score of `AATCTTCC` is reported as 0.281.
The E-score of `CTCTCCCC` is reported as 0.281.
`CGGAACGC` has an E-score of 0.277.
`ACCGTCCG` has an E-score of 0.27.
With `GAGGATGA` the E-score was 0.259.
`GCCGGATA` has an E-score of 0.471.
With `ATTTCCGG` the E-score was 0.497.
For `AGCAGGAT`, the E-score was 0.302.
For `AGGGGGAA`, the E-score was 0.307.
With `CGGAAGCA` the E-score was 0.478.
`CCGGTTTC` gave an E-score of 0.264.
`GAAGGAAC` gave an E-score of 0.304.
The E-score of `ACAGGATC` is reported as 0.282.
`CTTCCTGC` gave an E-score of 0.475.
With `AAGTTCCT` the E-score was 0.275.

Series 2
Target: Interferon regulatory factor 5, full length, phosphomimetic (IRF5, Homo sapiens, UniProt Q13568-2, residues 1-514, K96S/S451D/S453D/S456D/S462D)
Technique: protein-binding microarray
Molecule type: double-stranded DNA, one strand shown
Sample: in vitro
Tested at: 250 nM
Setting: 60-bp whole probe
Added: salmon DNA 0.4 mg/ml
Reference: random background probes
Direction: higher = stronger binding
All sequences stand within: GCCTAGCAC … GTCTTGATTCGCTTGACGCTGCTG
For `GGCGAACTGAGTCTCGAGACGTGCTAG`, the log fluorescence was -0.414 z-score.
For `GATGGACTGGGACTGGGGACGTGCTAG`, the log fluorescence was -0.373 z-score.
`TTAGGTTTCGTACTGCTTTAGTGCTAG` gave a log fluorescence of 4.05 z-score.
`TTAGGACTGCTTTTGCTTTAGTGCTAG` gave a log fluorescence of 0.52 z-score.
For `GACGGTCTCGGACTGCGGACGTGCTAG`, the log fluorescence was -0.473 z-score.
For `GACGGTTTCCATTTCCTGACGTGCTAG`, the log fluorescence was 1.42 z-score.
`TCAAATTTTCAATTCCTACTGTGCTAG` has a log fluorescence of 1.39 z-score.
With `TTAGGACTGCTTACCCTTTAGTGCTAG` the log fluorescence was -0.153 z-score.
The log fluorescence of `GACGGCTTCCTTTTCCTGACGTGCTAG` is reported as -0.162 z-score.
For `TTCCCTTTCTCAACCTCCAGGTGCTAG`, the log fluorescence was 1.41 z-score.
The log fluorescence of `GACGATTTCGGGACAGGAGACGTGCTA` is reported as 2.09 z-score.
For `GACGTACTGCTTCTCCTGACGTGCTAG`, the log fluorescence was -0.0914 z-score.
`TACGGTTTCGACACTGGGGACGTGCTA` has a log fluorescence of 4.65 z-score.
With `TTAGGTTTCGGGATTGGGTTAGTGCTA` the log fluorescence was 6.91 z-score.
`AGATATTTAGAACTTCTCCACGTGCTA` has a log fluorescence of 0.442 z-score.
For `TTAGGTCTCGGGATCGGTTAGTGCTAG`, the log fluorescence was 0.108 z-score.
With `GTCGGTCTCGGTCTCGGGACGTGCTAG` the log fluorescence was 0.739 z-score.
The log fluorescence of `GACGATCTCAGACGGGAGACGTGCTAG` is reported as -0.364 z-score.
`CTCTACTTGTGTCTAGAGATGTGCTAG` has a log fluorescence of -0.281 z-score.

Series 3
Target: RNA binding protein fox-1 homolog 2, RRM domain, GST-SBP tag (RBFOX2, Homo sapiens, UniProt O43251-10, residues 100-194)
Technique: RNA Bind-n-Seq
Molecule type: RNA
Sample: in vitro
Tested at: 365 nM
Setting: natural RNA segment, single round, ends assumed
Reference: no-protein control
Direction: higher = stronger binding
Under “RBNS enrichment (R)”, `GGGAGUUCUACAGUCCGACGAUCUGGAUAGUCAGGAAAAGAUUUAAUGUUUAAUAUUUAAACAAAAUAUUUAAUGUCUAUACAGUAAAAUUAUUCAAACUUCAAACCAGUAUUGAAAGCAGUUGGAAACCAGCUGGAAUUCUCGGGUGCCAA` is recorded as 0.365.
`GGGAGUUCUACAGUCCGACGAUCUACAAGUAAUAGAACUAUGACUGUAAGCCUCAGUACUGUACAAGGGAAGCUUUUCCUCUCUCUAAUUAGCUUUCCCAGUAUACUUCUUAGAAAGUCCAAGUGUUCAGGACUGGAAUUCUCGGGUGCCAA` — result for “RBNS enrichment (R)”: 0.421.
`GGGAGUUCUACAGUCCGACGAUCUGCCUCCUGCCCCUCCUGGAGUUCAGCUCCUCCUCUGCCGUGGCCCGUGUCUGUCUGGCUCAUCCUUUCUCCUGCCCAGCCUCACACCUGAUCUCCCUUUCCUGUAGACUUGGAAUUCUCGGGUGCCAA`: “RBNS enrichment (R)” 0.638.
`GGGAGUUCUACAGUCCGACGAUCGUAUUUUGAGUGUUCUUCUUUCUUAGACCCACCCGCGGGAACCGUUCACAGGUACCCUCCCUCGGGCCCUUUUGAUUCUGGGAGUUAGGUUGUGUUUUAUGUUCUUAGAGUGGAAUUCUCGGGUGCCAA` — result for “RBNS enrichment (R)”: 0.919.
`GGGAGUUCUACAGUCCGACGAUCUGCCUCGACACAGCACUGUGGCCUGUCCCUAUUGCCCAGGCACGCCAUUUCCAAGGGCAGGAAGGGGCAGUGUCCUGAAGCCCAUCUUUUCUGUGACUGUCUUAGGUGAUUGGAAUUCUCGGGUGCCAA`: “RBNS enrichment (R)” 0.57.
For `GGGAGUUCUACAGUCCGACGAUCAAAAAAAAACACCUACUUUUAAAGAAAAUACCUAACAGAUUUUUAAUAUAGUUAUCUCUACCACUUUCUUUUCUAGUUUCUUGAUUUUCAGCUCAGGCUGCAUUCUAACUUGGAAUUCUCGGGUGCCAA`, “RBNS enrichment (R)” read 0.515.
`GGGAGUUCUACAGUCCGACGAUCGCAGACGCGCAGGCCCCACCUGGCCUCCUGAAUCAAAAUGGUGUGCGGCAGGGUGCAGCGAGCUGUUUUCACGAGGCCUCCAGGUGACUGGAUGUAAGCUUGCUUGAGAAUGGAAUUCUCGGGUGCCAA`: “RBNS enrichment (R)” 0.516.
Under “RBNS enrichment (R)”, `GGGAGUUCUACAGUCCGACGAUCUGAGUCCAGCAUUUGGGUAUUGAGACAGCCUAGGGUACACAGGCACAAGACCCUGUCUCAACCAGAAAAGAAAAAUGUGUUUGCCAAAUCAUAACUCAGGGGCUUUGAACUGGAAUUCUCGGGUGCCAA` is recorded as 1.08.

Series 4
Organism: Saccharomyces cerevisiae
Read-out: pheromone growth arrest
Technique: yeast competitive growth sequencing
Molecule type: peptide
Strain: no Cln2 overexpression
Setting: peptide tiling library
Direction: direction not given
The enrichment score of `ISRLFPPRTPGWHQLQ` is reported as -0.377.
With `PLRKAKRARLCSSSSS` the enrichment score was 1.7.
`GQLVIPLDELTLDTSF` has an enrichment score of 0.982.
For `PFSENVSAVQKLDFSD`, the enrichment score was 0.441.
`RDLFDCDFGDLTPLDF` has an enrichment score of 0.561.
`ESSTVSEEDYFSSHRD` has an enrichment score of 0.485.
`KDDDKAWEYEERDRRS` gave an enrichment score of -0.0673.
The enrichment score of `KPITLDTTDFQESFVT` is reported as 0.511.
`SPREGHMMDALYAQVK` gave an enrichment score of -0.0643.
With `TSPGPVLLHPSPSTTQ` the enrichment score was -0.0118.
For `AGSAKRRLFGEDPPKE`, the enrichment score was 0.248.
`TSSAQRRLEIPSGGAD` has an enrichment score of -0.0378.
With `TRRRLFVENDSP` the enrichment score was 0.898.
`MNQELLSVGSKRRRTG` has an enrichment score of 1.44.
`SFLIEYEFLIPPSLKP` gave an enrichment score of 0.000528.
The enrichment score of `KRRLDLETDHQY` is reported as 0.0587.
For `KSKHEEEEWTDDDLVE`, the enrichment score was 0.835.

For quick reference, copied from above (series 4):
The enrichment score of `KRRLDLETDHQY` is reported as 0.0587.
`GQLVIPLDELTLDTSF` has an enrichment score of 0.982.
The enrichment score of `ISRLFPPRTPGWHQLQ` is reported as -0.377.
For `PFSENVSAVQKLDFSD`, the enrichment score was 0.441.
With `TSPGPVLLHPSPSTTQ` the enrichment score was -0.0118.
`SPREGHMMDALYAQVK` gave an enrichment score of -0.0643.
`KDDDKAWEYEERDRRS` gave an enrichment score of -0.0673.
The enrichment score of `KPITLDTTDFQESFVT` is reported as 0.511.
With `TRRRLFVENDSP` the enrichment score was 0.898.
`ESSTVSEEDYFSSHRD` has an enrichment score of 0.485.
